Assay results gathered from unrelated publications.
Protocols differ between the studies behind these lines. Several values in a cell are separate wells, animals, samples, runs or records. ± marks the error that the study gave.

SMILES = CC(=O)OC[C@H]1O[C@@H](n2cc(CSc3nc4ccccc4n3Cc3cn([C@@H]4O[C@H](COC(C)=O)[C@@H](OC(C)=O)C(OC(C)=O)[C@H]4OC(C)=O)nn3)nn2)[C@H](OC(C)=O)C(OC(C)=O)[C@@H]1OC(C)=O (stereo in doubt); cell line = HEK293; test = MTT; setting = 250 ppm; quantity = cytotoxicity; value = 86.4%
SMILES = CCOc1cncc(-c2ccc(NC(=O)C3(c4ccnc(NS(=O)(=O)C5CC5)n4)CCOCC3)nc2)n1; cell line = JURL-MK1; test = cell proliferation, CellTiter-Glo; setting = 72 h, myeloid haematological cancer; quantity = IC50; value = 0.043 µM
SMILES = C1=[N+]2CCCC[N+]3=Cc4ccc5[n]4[Au-]23[n]2c1ccc2-c1nc2ccccc2nc1-5.F[P-](F)(F)(F)(F)F; cell line = SF-539; test = NCI60 five-dose screen; quantity = TGI; value = 5.37 -log M
SMILES = CNS(=O)(=O)Nc1nccc(Cc2c(C)c3ccc(Oc4ncccc4F)cc3oc2=O)c1F; cell line = CoCM-1; test = cell viability; setting = 7 days; quantity = IC50; value = 0.0028 µM
SMILES = O=C(C[Se]C(=O)c1cccnc1Nc1cccc(C(F)(F)F)c1)Nc1cccc(C(F)(F)F)c1; cell line = NCI60 non-small-cell lung subpanel; test = cell growth; setting = 10 µM, 48 h, one-dose; quantity = mean growth percent; value = -89.8%
SMILES = CO[C@@H]1[C@@H](OC(N)=O)[C@@H](O)[C@H](Oc2ccc3c(O)c(NC(=O)c4ccc(O)c(CC=C(C)C)c4)c(=O)oc3c2C)OC1(C)C; cell line = DLD-1 BRCA2-/-; setting = 250 µM, replicate 1; quantity = colony count; value = 0.1
SMILES = CCN(CC)CC(=O)Nc1cccc(-n2cc(-c3ccc4ccc(-c5cn(-c6cccc(NC(=O)CN(CC)CC)c6)nn5)cc4c3)nn2)c1; cell line = RCC4; test = PCR angiogenesis array, item: LECT1; setting = 5 x IC50, 6 h, normoxia; scale = relative to: untreated; quantity = fold regulation; value = 1.08
SMILES = Cc1ncsc1-c1ccc(C(C)NC(=O)C2CC(O)CN2C(=O)C(NC(=O)CCCCCCCCCCN2CCCC(Nc3ncc(Cl)c(Nc4ccccc4S(=O)(=O)C(C)C)n3)C2)C(C)(C)C)cc1 (centres unmarked); cell line = 22Rv1; test = RNA-seq, item: PIP4P1 mRNA; setting = concentration not given; scale = relative to: DMSO; quantity = log2 fold change; value = -1.12
SMILES = COC1CN([C@H]2CC[C@H]([C@@]3(C)Oc4c(Cl)cc(C(=O)NCc5c(SC)cc(C)[nH]c5=O)c(C)c4O3)CC2)C1; cell line = J82; test = cell growth or viability, ATP luminescence; setting = 12 days; quantity = GI50; value = > 10 µM
SMILES = COc1ccccc1-c1ccncc1C(=O)Nc1nnc(OCc2ccc(Cl)cc2)s1; cell line = MDA-MB-436 BRCA1-mutant; test = colony formation; setting = 0.375 µM; scale = higher = more survival; quantity = colony count; value = 15 and 14.5 and 14
SMILES = CC(C)Cc1ccc(C(C)C(=O)[Se]CC(=O)Nc2cccc(C(F)(F)F)c2)cc1 (centres unmarked); cell line = NCI60 ovarian subpanel; test = cell growth; setting = 10 µM, 48 h, one-dose; quantity = mean growth percent; value = -85.7%
SMILES = O=C(Nc1nnc2c1c(-c1ccc(Cl)cc1)nc1sc(=Cc3ccco3)c(=O)n12)c1ccccc1 (mixture of isomers); cell line = UACC-62; test = SRB; setting = 10 µM, NCI60 single-dose screen; scale = relative to: untreated; quantity = cell growth; value = 34%
SMILES = CN1CCCNC(=O)c2cccc(c2)C(=O)NCCCN(C)CCCNc2cccc3c2C(=O)c2cccc(c2C3=O)NCCC1; cell line = SAS; test = RNA-Seq, item: NFKB1 mRNA; setting = 1 µM, 24 h; scale = relative to: untreated cells; quantity = log2 fold change; value = -2.52
SMILES = COC(=O)c1cc(NC2=NC(=O)C(=Cc3ccc(N(C)C)cc3)S2)ccc1OC(C)=O; cell line = MCF7; test = item: MCM6 mRNA; setting = 0.81 µM (IC50), 24 h; scale = relative to: DMSO; quantity = fold change; value = 0.419
SMILES = Cc1c(Cl)cccc1Nc1ccccc1C(=O)[Se]CC(=O)Nc1cccc(C(F)(F)F)c1; cell line = NCI60 ovarian subpanel; test = total growth inhibition, inhibitor; setting = five-dose; quantity = mean TGI; value = 3.55 µM
SMILES = COC1=C2CC(C)CC(OC)C(O)C(C)C=C(C)C(OC(N)=O)C(OC)C=CC=C(C)C(=O)NC(=CC1=O)C2=O (centres unmarked); cell line = Rh30; test = ChIP-seq, item: H3K36me3 peak; setting = concentration not given, CBX2 TTS chr17:77751200-77761399; scale = relative to: untreated control; quantity = log fold change; value = -0.544
SMILES = O=C(C[Se]C(=O)c1ccc2ccccc2n1)Nc1cccc(C(F)(F)F)c1; cell line = NCI60 ovarian subpanel; test = total growth inhibition, inhibitor; setting = five-dose; quantity = mean TGI; value = 4.05 µM
SMILES = Cn1ncc2cc(-c3cncc(Cl)c3N3CCC4(CCNC4=O)CC3)ccc21; cell line = LS174T; test = gene expression, microarray, item: NPTX1 mRNA; setting = concentration not given, 4 h; scale = relative to: untreated cells; quantity = log2 fold change; value = -1.36
SMILES = O=C(C[Se]C(=O)c1ccccc1Nc1ccccc1)Nc1cccc(C(F)(F)F)c1; cell line = NCI60 ovarian subpanel; test = cell growth; setting = 10 µM, 48 h, one-dose; quantity = mean growth percent; value = -70.7%
SMILES = CC1(C)C[C@@H](Nc2cccc(-c3sc(C(=O)O)c(OCC(=O)O)c3Cl)c2)CCN1S(=O)(=O)Cc1cccc(NC(=O)CN2CCC(c3ccc4c(c3)oc(=O)n4C3CCC(=O)NC3=O)CC2)c1 (some centres unmarked); cell line = B16-F10; test = HTRF, item: phospho-STAT1 Tyr701; setting = 0.014 µM, with: IFN-γ; scale = relative to: DMSO; quantity = fold change; value = 1.09 and 1.1 and 1.15 and 1.11
SMILES = COc1ccc(CNc2ccc3c(c2)S(=O)(=O)C=C3)cc1; cell line = U-251 MG; test = resazurin; setting = 5 µM, 24 h; quantity = viability; value = 65%
SMILES = CC[C@H](CO)Nc1nc(NCc2ccc(-c3ccccn3)cc2)c2ncn(C(C)C)c2n1; cell line = MOLT-4; test = tandem mass tag proteomics, item: UIF; setting = 1 µM, 5 h; scale = relative to: DMSO; quantity = log2 fold change; value = -1.9
SMILES = Cc1nc(=S)[nH]c(C)c1/N=N/c1nnc(S)s1; cell line = Vero; test = cell viability, MTT; setting = 5.0 µg/mL; quantity = inhibition; value = 15.8 ± 0.863%
SMILES = O=C(C[Se]C(=O)c1ccc2ccccc2c1)Nc1cccc(C(F)(F)F)c1; cell line = NCI60 ovarian subpanel; test = cell growth; setting = 10 µM, 48 h, one-dose; quantity = mean growth percent; value = -76.3%
SMILES = CSC(=S)N/N=C(\C)c1ccc(Nc2nnc(-c3ccc(Cl)cc3)c3ccccc23)cc1; cell line = MCF7; test = cell growth or viability, MTT; setting = 78 nM, 24 h; quantity = viability; value = 92.9%
SMILES = COc1ccc(NC(=O)c2ccc3[nH]c(-c4ccc(N(C)C)cc4)nc3c2)cn1; cell line = HCEC-hTERT; test = IncuCyte; setting = concentration not given, 10 h; quantity = dead cell to confluence ratio; value = 5.41 and 3.74 and 66.1
SMILES = C=CC(=O)N1[C@H](c2ccc3c(c2)OCO3)c2[nH]c3ccccc3c2C[C@@H]1C(=O)NC; cell line = rat DRG neurons; setting = 0.01372 µM, 48 h, with: vincristine 40 nM; quantity = neuron degeneration; value = 76.6% and 77.1%
SMILES = CN(C)CCN1CCN(c2ccc3nc(-c4ccc5nc(-c6ccc(C(F)(F)F)cc6)[nH]c5c4)[nH]c3c2)CC1; cell line = UACC-62; test = SRB; setting = 10 µM, 48 h; quantity = growth percent; value = 44.8%
SMILES = COc1cc(N2CCOCC2)ccc1Nc1ncc(Cl)c(Nc2ccccc2NS(C)(=O)=O)n1; cell line = PC-9 del19/T790M/C797S cells; test = annexin V/PI staining; setting = 1 µM, 24 h; quantity = apoptotic cells; value = 22.8%
SMILES = CCN(C(=O)c1cc(F)ccc1Oc1nncnc1N1CCC2(C1)CN([C@H](CCCN(C)CCOC)C(C)C)C2)C(C)C; cell line = JIMT-1; test = cell growth or viability; setting = 7 days; quantity = GI50; value = > 10 µM
SMILES = CC(C)c1ccc(N(C)c2ccc3c(c2)OCC[C@H]3CNc2cnccc2C(=O)O)cc1; cell line = Lu-99; test = cell viability, CellTiter-Glo; setting = 7 days; quantity = IC50; value = ≥ 10 µM
SMILES = Cc1ccc([N+](=O)[O-])cc1S(=O)(=O)N(C)/N=C/c1cnc2ccc(Br)cn12; cell line = HuT78; setting = 200 nM; quantity = live cells; value = 44.5%

Some of these lines once more:
SMILES = CSC(=S)N/N=C(\C)c1ccc(Nc2nnc(-c3ccc(Cl)cc3)c3ccccc23)cc1; cell line = MCF7; test = cell growth or viability, MTT; setting = 78 nM, 24 h; quantity = viability; value = 92.9%
SMILES = Cc1ncsc1-c1ccc(C(C)NC(=O)C2CC(O)CN2C(=O)C(NC(=O)CCCCCCCCCCN2CCCC(Nc3ncc(Cl)c(Nc4ccccc4S(=O)(=O)C(C)C)n3)C2)C(C)(C)C)cc1 (centres unmarked); cell line = 22Rv1; test = RNA-seq, item: PIP4P1 mRNA; setting = concentration not given; scale = relative to: DMSO; quantity = log2 fold change; value = -1.12
SMILES = Cc1c(Cl)cccc1Nc1ccccc1C(=O)[Se]CC(=O)Nc1cccc(C(F)(F)F)c1; cell line = NCI60 ovarian subpanel; test = total growth inhibition, inhibitor; setting = five-dose; quantity = mean TGI; value = 3.55 µM
SMILES = CCN(C(=O)c1cc(F)ccc1Oc1nncnc1N1CCC2(C1)CN([C@H](CCCN(C)CCOC)C(C)C)C2)C(C)C; cell line = JIMT-1; test = cell growth or viability; setting = 7 days; quantity = GI50; value = > 10 µM
SMILES = O=C(Nc1nnc2c1c(-c1ccc(Cl)cc1)nc1sc(=Cc3ccco3)c(=O)n12)c1ccccc1 (mixture of isomers); cell line = UACC-62; test = SRB; setting = 10 µM, NCI60 single-dose screen; scale = relative to: untreated; quantity = cell growth; value = 34%
